# Experimental data of several laboratories.
# Each numbered part is a random draw from the data of one study; scales do not carry over between parts. “And” joins repeats or separate records; there may be more than shown.
# Sequence of UniProt P28222 (whole entry, looked up): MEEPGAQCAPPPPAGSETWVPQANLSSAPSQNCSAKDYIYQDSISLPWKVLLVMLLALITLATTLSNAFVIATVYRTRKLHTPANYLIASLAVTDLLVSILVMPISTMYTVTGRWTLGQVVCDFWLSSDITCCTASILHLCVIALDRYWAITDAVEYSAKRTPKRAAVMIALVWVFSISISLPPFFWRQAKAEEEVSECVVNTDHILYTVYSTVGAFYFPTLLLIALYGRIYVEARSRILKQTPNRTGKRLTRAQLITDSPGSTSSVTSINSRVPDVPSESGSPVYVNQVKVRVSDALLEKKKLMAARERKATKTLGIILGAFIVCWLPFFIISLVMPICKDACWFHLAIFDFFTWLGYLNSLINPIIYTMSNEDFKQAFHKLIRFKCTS

# Block 1
# Organism: Sarcocystis neurona
# Read-out: parasite growth
# Concentration: 10 µM
# Time: 96 h
# Baseline: untreated
Structure (SMILES),log2 fold change
O=C(O)c1cc(=O)c2c(OCC(O)COc3cccc4oc(C(=O)O)cc(=O)c34)cccc2o1,0.37
COC(=O)Nc1nc2cc(C(=O)c3ccc(F)cc3)ccc2[nH]1,-0.33
CC1(C)S[C@@H]2[C@H](/N=C/N3CCCCCC3)C(=O)N2[C@H]1C(=O)O,0.26
Cc1nccn1CC1CCc2c(c3ccccc3n2C)C1=O (centres unmarked),0.36

# Further values, each from its own experiment
Compound,target or system,assay,system,conditions,how to read,measurement,value
O=C(COc1ccccc1P(=O)(O)O)NCC(F)(F)c1cccc(F)c1,human islets,"qPCR, item: USP8",,"concentration not given, unit not given, together with: high glucose (20 mM)",baseline: low glucose control,mRNA level,0.938 and 1.36 and 0.664 and 1.12
C[C@H](c1ccnc(Nc2nc3ccc(-c4cc(N(C)C)ncn4)cc3[nH]2)c1)N1CCN(C(=O)CC(F)(F)F)CC1,"HTR1B (Homo sapiens, UniProt P28222)",ligand displacement,,10 µM,,inhibition,11.5%
CCOC(=O)[C@@H]1CSCC(=O)N[C@H](CC)C(=O)N(C)[C@@H](C)C(=O)N[C@H](CC(C)C)C(=O)N2CCC[C@H]2C(=O)N(CC)CC(=O)N[C@@H](CC(C)C)C(=O)N(C)[C@H](C)C(=O)N[C@@H](CC(C)C)C(=O)N1C,,,hydrocarbon/water,,,logD,-0.158
CC(C)n1cnc(-c2ccc(F)cc2)c1-c1ncc(C(=O)Nc2ccc(N3CCN(C)CC3)cc2)[nH]1,,,"human, idiopathic pulmonary fibrosis","60 mg once daily, trial, treatment-emergent",,patients with electrocardiogram QT prolonged,0%

# For quick reference, copied from above (block 1):
Structure (SMILES),log2 fold change
COC(=O)Nc1nc2cc(C(=O)c3ccc(F)cc3)ccc2[nH]1,-0.33
